# Measured values from different studies.
# 4'-phosphopantetheinyl transferase PptT: 4'-phosphopantetheinyl transferase PptT (Mycobacterium tuberculosis, UniProt O33336)
# Chain of UniProt O33336 (whole entry, looked up): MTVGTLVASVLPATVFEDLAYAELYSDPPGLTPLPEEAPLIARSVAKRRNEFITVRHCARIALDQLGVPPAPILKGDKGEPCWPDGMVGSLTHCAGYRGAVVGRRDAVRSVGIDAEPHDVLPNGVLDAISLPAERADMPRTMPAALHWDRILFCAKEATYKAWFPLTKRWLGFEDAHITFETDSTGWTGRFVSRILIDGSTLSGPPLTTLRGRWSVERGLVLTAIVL
# Chain of UniProt Q96GD4 (whole entry, looked up): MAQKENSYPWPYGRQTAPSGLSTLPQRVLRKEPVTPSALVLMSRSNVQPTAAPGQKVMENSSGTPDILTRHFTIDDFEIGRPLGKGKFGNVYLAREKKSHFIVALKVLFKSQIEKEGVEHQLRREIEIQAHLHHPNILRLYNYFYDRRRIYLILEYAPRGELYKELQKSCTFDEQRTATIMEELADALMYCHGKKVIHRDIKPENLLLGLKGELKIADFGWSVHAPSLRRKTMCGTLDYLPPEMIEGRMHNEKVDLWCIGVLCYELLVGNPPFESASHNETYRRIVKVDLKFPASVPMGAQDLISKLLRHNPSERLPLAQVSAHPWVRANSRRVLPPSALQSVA
# Chain of UniProt P42336 (whole entry, unmodified, looked up): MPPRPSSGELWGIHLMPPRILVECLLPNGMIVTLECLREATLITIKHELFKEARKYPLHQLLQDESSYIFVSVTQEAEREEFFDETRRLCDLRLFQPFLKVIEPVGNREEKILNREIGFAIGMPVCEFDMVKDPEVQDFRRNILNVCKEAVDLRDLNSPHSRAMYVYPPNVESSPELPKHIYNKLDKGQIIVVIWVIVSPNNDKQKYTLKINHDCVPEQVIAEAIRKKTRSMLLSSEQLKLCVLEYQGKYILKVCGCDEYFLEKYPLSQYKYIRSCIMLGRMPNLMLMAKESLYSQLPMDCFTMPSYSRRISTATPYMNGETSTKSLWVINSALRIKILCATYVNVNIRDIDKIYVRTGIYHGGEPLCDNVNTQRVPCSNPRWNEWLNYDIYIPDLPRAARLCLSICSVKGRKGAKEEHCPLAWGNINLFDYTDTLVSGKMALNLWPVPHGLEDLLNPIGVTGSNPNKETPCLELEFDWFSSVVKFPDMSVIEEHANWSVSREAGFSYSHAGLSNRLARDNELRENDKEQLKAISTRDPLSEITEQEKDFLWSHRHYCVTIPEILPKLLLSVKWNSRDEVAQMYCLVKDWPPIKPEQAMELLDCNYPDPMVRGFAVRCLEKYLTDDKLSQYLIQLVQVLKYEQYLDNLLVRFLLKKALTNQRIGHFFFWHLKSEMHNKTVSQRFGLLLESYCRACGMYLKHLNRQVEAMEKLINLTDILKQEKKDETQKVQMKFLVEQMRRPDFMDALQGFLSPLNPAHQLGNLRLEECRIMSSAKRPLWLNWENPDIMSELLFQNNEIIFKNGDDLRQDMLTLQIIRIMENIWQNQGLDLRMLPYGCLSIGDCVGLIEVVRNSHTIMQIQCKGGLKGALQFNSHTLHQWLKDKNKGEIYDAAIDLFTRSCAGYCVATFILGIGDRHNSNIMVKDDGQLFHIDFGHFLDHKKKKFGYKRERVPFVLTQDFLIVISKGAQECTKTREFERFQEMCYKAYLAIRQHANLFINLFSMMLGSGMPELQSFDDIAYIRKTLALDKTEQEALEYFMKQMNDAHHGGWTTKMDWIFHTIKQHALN
# Chain of UniProt P78362 (whole entry, looked up): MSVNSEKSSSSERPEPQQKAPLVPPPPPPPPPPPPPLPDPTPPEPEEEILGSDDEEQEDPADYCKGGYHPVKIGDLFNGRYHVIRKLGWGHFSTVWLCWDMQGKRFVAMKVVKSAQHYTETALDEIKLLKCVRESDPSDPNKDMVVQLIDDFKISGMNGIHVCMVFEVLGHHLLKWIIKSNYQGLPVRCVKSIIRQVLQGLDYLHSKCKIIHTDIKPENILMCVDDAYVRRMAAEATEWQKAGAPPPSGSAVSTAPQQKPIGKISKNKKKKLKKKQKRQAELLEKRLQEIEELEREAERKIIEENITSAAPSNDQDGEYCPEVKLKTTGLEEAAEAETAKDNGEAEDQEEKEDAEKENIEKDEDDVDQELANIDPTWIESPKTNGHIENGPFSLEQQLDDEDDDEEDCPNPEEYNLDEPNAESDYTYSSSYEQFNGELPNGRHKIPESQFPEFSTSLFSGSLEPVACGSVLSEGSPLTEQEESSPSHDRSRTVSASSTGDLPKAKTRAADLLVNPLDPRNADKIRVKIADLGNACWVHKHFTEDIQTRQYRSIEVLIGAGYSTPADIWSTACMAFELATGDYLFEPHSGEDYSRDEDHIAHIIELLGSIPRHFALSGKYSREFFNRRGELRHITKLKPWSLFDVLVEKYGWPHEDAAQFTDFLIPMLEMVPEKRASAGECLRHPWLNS
# Chain of UniProt Q12852 (whole entry, looked up): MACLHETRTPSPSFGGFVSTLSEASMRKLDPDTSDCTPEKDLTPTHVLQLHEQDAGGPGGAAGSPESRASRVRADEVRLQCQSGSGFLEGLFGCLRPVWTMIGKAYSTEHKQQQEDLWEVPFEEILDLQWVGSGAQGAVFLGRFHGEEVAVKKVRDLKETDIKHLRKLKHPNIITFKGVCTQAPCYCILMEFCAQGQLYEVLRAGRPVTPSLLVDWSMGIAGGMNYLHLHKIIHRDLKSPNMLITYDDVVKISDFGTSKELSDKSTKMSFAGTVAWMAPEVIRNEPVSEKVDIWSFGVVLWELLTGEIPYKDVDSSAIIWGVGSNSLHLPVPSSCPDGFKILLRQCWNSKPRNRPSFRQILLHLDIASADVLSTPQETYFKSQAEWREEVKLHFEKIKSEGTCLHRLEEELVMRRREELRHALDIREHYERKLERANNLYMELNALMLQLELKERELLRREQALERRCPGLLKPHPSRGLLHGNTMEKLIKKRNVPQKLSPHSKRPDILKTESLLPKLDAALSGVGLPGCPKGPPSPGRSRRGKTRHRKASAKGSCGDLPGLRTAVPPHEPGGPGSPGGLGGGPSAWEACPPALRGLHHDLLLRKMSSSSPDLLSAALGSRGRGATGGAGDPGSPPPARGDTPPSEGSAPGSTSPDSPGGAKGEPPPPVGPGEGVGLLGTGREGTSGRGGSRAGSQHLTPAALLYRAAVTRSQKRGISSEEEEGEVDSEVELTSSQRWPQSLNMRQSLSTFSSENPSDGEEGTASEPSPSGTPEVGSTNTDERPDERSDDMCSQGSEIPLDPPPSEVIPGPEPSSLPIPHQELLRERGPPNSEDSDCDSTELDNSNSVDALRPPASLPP
Structure (SMILES),tested on,test,test system,conditions,quantity,result
COC(=O)c1cc(-c2cccc(NC(=S)Nc3ccccc3Cl)c2)on1,Mycobacteroides abscessus,"microbial growth, broth dilution",ATCC19977,48 h,MIC,> 64 µg/mL
CC(C)[C@@H]1NC(=O)[C@@H](CCCCN)NC(=O)[C@H]([C@@H](C)O)NC(=O)[C@H](Cc2ccccc2)NC(=O)[C@@H](Cc2ccccc2)NC(=O)[C@H]([C@@H](C)O)NC(=O)[C@@H](CCCN)NC1=O,Balamuthia mandrillaris,"parasite growth, ATP luminescence",,,IC90,> 16 µg/mL
CCCCCCNC(=S)Nc1cccc(-c2cc(C(=O)OC)no2)c1,Mycobacteroides abscessus,"microbial growth, broth dilution",ATCC19977,48 h,MIC,> 64 µg/mL
Oc1c(Br)cc(Br)cc1-c1[nH]c(Br)c(Br)c1Br,Enterococcus faecalis,microbial growth,ATCC29212,,MIC,32 µM
Cc1nn(C)cc1-c1nc2c(N3CCN(Cc4ccc(Cl)cc4)CC3)c(Cl)cnc2[nH]1,"Phosphatidylinositol 4,5-bisphosphate 3-kinase catalytic subunit alpha isoform (PIK3CA, Homo sapiens, UniProt P42336, H1047Y)","binding, competition with immobilised ligand",,1 µM,remaining binding,100%
O=C(NNc1ccc(Cl)cc1)c1nnc(C23CC4CC(CC(C4)C2)C3)o1,Fusarium oxysporum,microbial growth,,,EC50,3.74 µg/mL
COC(=O)c1cc(-c2cccc(NC(=S)Nc3cccc(Br)c3)c2)on1,Acinetobacter baumannii,"microbial growth, broth dilution",BAA1605,,MIC,> 64 µg/mL
Nc1ncc(-c2nc(N3CCOCC3)nc(N3CCOCC3)n2)c(C(F)F)n1,"SRSF protein kinase 2 (SRPK2, Homo sapiens, UniProt P78362)","binding, competition with immobilised ligand",,10 µM,remaining binding,100%
[2H]c1c([2H])c([C@]2([2H])CCCN2C(=O)C(C)(C)Oc2ccc3cn[nH]c3c2)c([2H])c([2H])c1C([2H])([2H])[2H],"Aurora kinase B (AURKB, Homo sapiens, UniProt Q96GD4)","binding, competition with immobilised ligand",,1 µM,remaining binding,82%
CC(=O)N1CCN(c2ccc(OCC3COC(Cn4ccnc4)(c4ccc(Cl)cc4Cl)O3)cc2)CC1 (stereo not drawn),Candida albicans,"microbial killing, broth dilution",17546,48 h,MFC,> 64 µM
O=C(NNc1cccc(Cl)c1)c1nnc(CC23CC4CC(CC(C4)C2)C3)o1,Fusarium oxysporum,microbial growth,,,EC50,> 50 µg/mL
CC(C)[C@@H]1NC(=O)[C@@H](CCCCN)NC(=O)[C@H](CCCCN)NC(=O)[C@@H](CCCN)NC(=O)[C@H](C)NC(=O)[C@H](Cc2c[nH]c3ccccc23)NC(=O)[C@@H](Cc2ccccc2)NC1=O,Balamuthia mandrillaris,"parasite growth, ATP luminescence",,,IC50,> 16 µg/mL
COC(=O)c1cc(-c2cccc(NC(=O)Nc3cc(Cl)ccc3Cl)c2)on1,Mycobacteroides abscessus,"microbial growth, broth dilution",ATCC19977,48 h,MIC,> 64 µg/mL
O=C(NNc1ccccc1)c1nnc(CC23CC4CC(CC(C4)C2)C3)o1,Fusarium oxysporum,microbial growth,,,EC50,> 12.5 µg/mL
NCCCC[C@H]1NC(=O)[C@H](Cc2ccccc2)NC(=O)[C@H](Cc2c[nH]c3ccccc23)NC(=O)[C@@H](Cc2ccccc2)NC(=O)[C@H](Cc2ccccc2)NC(=O)[C@@H](CCCN)NC(=O)[C@H](CCCN)NC1=O,Balamuthia mandrillaris,"parasite growth, ATP luminescence",,,IC90,9.92 µg/mL
COC(=O)c1cc(-c2cccc(NC(=O)Nc3cccc(Cl)c3)c2)on1,Acinetobacter baumannii,"microbial growth, broth dilution",BAA1605,,MIC,> 64 µg/mL
COCc1ccc2[nH]c(=S)n(Cc3cccnc3)c(=O)c2c1,4'-phosphopantetheinyl transferase PptT,"enzyme activity, inhibitor, FP",,,IC50,1390 nM
Oc1c(Cl)cc(Cl)cc1-c1[nH]c(Cl)c(Cl)c1Cl,Escherichia coli,microbial growth,"K12, MG1655",,MIC,5.33 µM
COC(=O)c1cc(-c2cccc(NC(=O)Nc3ccccc3C)c2)on1,Escherichia coli,"microbial growth, broth dilution",ATCC25922,,MIC,> 64 µg/mL
O=C(NCCc1ncc(C(F)(F)F)cc1Cl)c1ccccc1C(F)(F)F,Fusarium oxysporum,microbial growth,,,EC50,> 50 µg/mL
CC(C)[C@H]1NC(=O)[C@@H](C)NC(=O)[C@H](Cc2c[nH]c3ccccc23)NC(=O)[C@@H](CCCN)NC(=O)[C@H]([C@@H](C)O)NC(=O)[C@@H](CCCN)NC(=O)[C@H](Cc2c[nH]c3ccccc23)NC(=O)[C@@H](C)NC1=O,Balamuthia mandrillaris,"parasite growth, ATP luminescence",,,IC90,> 16 µg/mL
COC(=O)c1cc(-c2cccc(NC(=O)NCc3ccccc3)c2)on1,Acinetobacter baumannii,"microbial growth, broth dilution",BAA1605,,MIC,> 64 µg/mL
NC(=O)c1cc2[nH]c(=S)n(Cc3cccnc3)c(=O)c2cc1Cl,4'-phosphopantetheinyl transferase PptT,"enzyme activity, inhibitor, FP",,,IC50,3130 nM
CC(C)[C@@H]1NC(=O)[C@@H](CCCCN)NC(=O)[C@H](CCCN)NC(=O)[C@@H](CCCN)NC(=O)[C@H](C)NC(=O)[C@H](Cc2c[nH]c3ccccc23)NC(=O)[C@@H](Cc2ccccc2)NC1=O,Balamuthia mandrillaris,"parasite growth, ATP luminescence",,,IC90,> 16 µg/mL
O=C(NNc1ccc(F)c(F)c1)c1nnc(C23CC4CC(CC(C4)C2)C3)o1,Fusarium oxysporum,microbial growth,,,EC50,5.95 µg/mL
COC(=O)c1cc(-c2cccc(NC(=O)Nc3ccccc3OC)c2)on1,Mycobacteroides abscessus,"microbial growth, broth dilution",ATCC19977,48 h,MIC,> 64 µg/mL
C[C@H]1NC(=O)[C@H](Cc2c[nH]c3ccccc23)NC(=O)[C@@H](Cc2ccccc2)NC(=O)[C@@H](CCCN)NC(=O)[C@H]([C@@H](C)O)NC(=O)[C@@H](CCCN)NC(=O)[C@H](Cc2c[nH]c3ccccc23)NC(=O)[C@@H](C)NC1=O,Balamuthia mandrillaris,"parasite growth, ATP luminescence",,,IC50,> 16 µg/mL
COc1ncccc1-c1cnn2ccc(N3CCN(C(=O)OC(C)C)CC3)nc12,"Mitogen-activated protein kinase kinase kinase 12 (MAP3K12, Homo sapiens, UniProt Q12852)","binding, competition with immobilised ligand",,1 µM,remaining binding,100%
O=C(NNc1cccc(Cl)c1)c1nnc(C23CC4CC(CC(C4)C2)C3)o1,Fusarium oxysporum,microbial growth,,,EC50,6.22 µg/mL
C[C@@H](O)[C@@H]1NC(=O)[C@@H](CCCCN)NC(=O)[C@H](CCCN)NC(=O)[C@@H](CCCN)NC(=O)[C@H](CO)NC(=O)[C@H](Cc2c[nH]c3ccccc23)NC(=O)[C@@H](Cc2c[nH]c3ccccc23)NC1=O,Balamuthia mandrillaris,"parasite growth, ATP luminescence",,,IC50,> 16 µg/mL

# For quick reference, copied from above:
Structure (SMILES),tested on,test,test system,conditions,quantity,result
COC(=O)c1cc(-c2cccc(NC(=O)Nc3ccccc3C)c2)on1,Escherichia coli,"microbial growth, broth dilution",ATCC25922,,MIC,> 64 µg/mL
O=C(NNc1ccc(Cl)cc1)c1nnc(C23CC4CC(CC(C4)C2)C3)o1,Fusarium oxysporum,microbial growth,,,EC50,3.74 µg/mL
CC(C)[C@@H]1NC(=O)[C@@H](CCCCN)NC(=O)[C@H]([C@@H](C)O)NC(=O)[C@H](Cc2ccccc2)NC(=O)[C@@H](Cc2ccccc2)NC(=O)[C@H]([C@@H](C)O)NC(=O)[C@@H](CCCN)NC1=O,Balamuthia mandrillaris,"parasite growth, ATP luminescence",,,IC90,> 16 µg/mL
